Results of several laboratories.
Compare with care: the assays were run in different laboratories. ± marks the error that the study gave.
Cell line: HeLa

O=C(CCCCCCC(=O)Nc1ccccc1)NO
GI50 (cell growth or viability, XTT; 72 h): 2.84 µM

S=c1n(-c2ccccc2)c2c3ccccc3nc3[n+]2[n]1[Ir-3]12([S]3)([c]3ccccc3-c3cccc[n+]31)[c]1ccccc1-c1cccc[n+]12
phototoxicity index (baseline: IC50 dark over IC50 light): > 3330

COc1cc2c(=O)c(-c3ccc4c(c3)OCO4)coc2c2c1OC(C)(C)C=C2
apoptotic cells (annexin V/PI flow cytometry; 2.5 µM, 48 h): 18%

COc1ccc(CCC(=O)Nc2nc3ccc(Cl)cc3s2)cc1OC
cholesteryl ester level (shotgun lipidomics, item: CE 16:0 and 18:1; 10 µM, 18 h): decreased

O=[N+]([O-])c1ccc(NC2=N[N+](=Cc3cccs3)[Pt-]([Cl])([Cl])[S]2)cc1
minimal cytotoxic concentration (altered cell morphology, microscopy; confluent cultures): > 100 µM

COc1cc([C@@H]2c3cc4c(cc3[C@@H](OCc3cc(-c5ccc(C)cc5)no3)[C@H]3COC(=O)C23)OCO4)cc(OC)c1OC (some centres unmarked)
GI50 (cell growth or viability, SRB; 48 h): 3.92 µM

O=c1c(/C=N/NC(=S)N/N=C/c2cc(Cl)ccc2O)coc2ccccc12
reduction in H2O2 level (DCFDA flow cytometry; 0.1 µM, 24 h; baseline: untreated cells): ~15%

Cc1cc(/C=C2\CN(C(C)C)C/C(=C\c3cc(C)c(O)c(C)c3)C2=O)cc(C)c1O
G2/M phase cells (PI flow cytometry; 5 µM, 24 h): 20.2 ± 1.66%

CC(C)[C@@H]1NC(=O)[C@H](Cc2ccc(OP(=O)(O)O)cc2)NC(=O)[C@H](CCCNC(=N)N)NC(=O)[C@H](CCCNC(=N)N)NC(=O)[C@@H]2CCCN2C(=O)[C@H]2CCCN2C(=O)[C@@H](C)NC(=O)[C@H](C)NC(=O)[C@H](Cc2ccccc2)NC(=O)[C@H](CC(N)=O)NC1=O
cytosolic entry efficiency (flow cytometry; NF-labelled via miniPEG-Lys at Asn; 5 µM, 2 h; baseline: CPP9 cyclo(fΦRrRrQ) as 100%): 2%

C=C1C(=O)OC2C=C(C)CCC=C(C(=O)OC(C)C(C)(O)C(=O)OC3C(OC(C)=O)C(C(=O)OC)=CCCC(C)=CC4OC(=O)C(=C)C43)CC(OC(=O)C(C)=CC)C12 (centres unmarked)
sub-G1 cells (PI staining flow cytometry; 3 µM, 48 h): 10%

CC(C)(C)c1cc2c(O)c(c1)Cc1cc(C(C)(C)C)cc(c1OCC(=O)Nc1nccs1)Cc1cc(C(C)(C)C)cc(c1O)Cc1cc(C(C)(C)C)cc(c1OCC(=O)Nc1nccs1)COC2
inhibition (cell growth or viability, MTT; 15 µM, 72 h): 54%

CC1=[N+]2N=C(c3ccccc3)[O][Pd-2]2([Cl])[O+]=C2Oc3ccccc3C=C21 (centres unmarked)
G0/G1 phase cells (flow cytometry; IC50, 24 h): 46.5%

CNC(=O)c1c(C)oc2cc(Oc3ncnc4cc(OC)c(OCCCCCCC(=O)NO)cc34)ccc12
apoptotic cells (annexin V/7-AAD flow cytometry; 3 µM, 48 h): 24.5%

O=C(/C=C/c1ccccc1)Oc1ccc2c(c1)O/C(=C\C=C\c1ccccc1)C2=O
mTOR level (Western blot; concentration not given, 24 h): no effect

[Cl][Pt-]1([Cl])[S]C(Nc2ccccc2)=N[N+]1=Cc1ccc(-c2ccccc2)s1
minimal cytotoxic concentration (altered cell morphology, microscopy; confluent cultures): 100 µM

CC[C@H](C(=O)N1CCCC[C@H]1C(=O)O[C@H](CCc1ccc(OC)c(OC)c1)c1cccc(OCC(=O)NCCC(=O)N2CCN(CCCOc3cc4c(Nc5ccc(F)c(Cl)c5)ncnc4cc3OC)CC2)c1)c1cc(OC)c(OC)c(OC)c1
apoptotic and dead cells (annexin V/PI flow cytometry; 1 µM, 48 h, DMSO 12.4%): 36.4%

CCCCN(CCCC)CC(O)COc1c2ccoc2c(OC)c2oc(CC)cc(=O)c12 (centres unmarked)
late apoptotic or necrotic cells (annexin V/7-AAD flow cytometry; IC50, 72 h): 44.9%

S=c1n(-c2ccccc2)c2c3ccccc3nc3[n+]2[n]1[Ir-3]12([S]3)([c]3ccccc3-c3sc4ccccc4[n+]31)[c]1ccccc1-c1sc3ccccc3[n+]12
phototoxicity index (baseline: IC50 dark over IC50 light): > 8330

CC(=O)N[C@@H](CC1CCCCC1)C(=O)N[C@H]1CSSC[C@@H](C(=O)N[C@@H](CCCNC(=N)N)C(N)=O)NC(=O)[C@H](CC2CCCCC2)NC(=O)[C@H](CCCNC(=N)N)NC(=O)[C@H](CCCNC(=N)N)NC(=O)[C@H](CC2CCCCC2)NC(=O)[C@H](CC(C)C)NC(=O)[C@H](CCCNC(=N)N)NC(=O)[C@@H](NC(=O)[C@H](CC2CCCCC2)NC(C)=O)CSSC[C@@H](C(=O)N[C@@H](CCCNC(=N)N)C(N)=O)NC(=O)[C@H](CC2CCCCC2)NC(=O)[C@H](CCCNC(=N)N)NC(=O)[C@H](CCCNC(=N)N)NC(=O)[C@H](CC2CCCCC2)NC(=O)[C@H](CC(C)C)NC(=O)[C@H](CCCNC(=N)N)NC1=O
mitochondrial fraction share (fluorescence of TAMRA label; EC50, 3 h): ~80%

CC(C)(C)c1cc2c(O)c(c1)Cc1cc(C(C)(C)C)cc(c1OCC(=O)NCc1cccnc1)Cc1cc(C(C)(C)C)cc(c1O)Cc1cc(C(C)(C)C)cc(c1OCC(=O)NCc1cccnc1)COC2
inhibition (cell growth or viability, MTT; 15 µM, 72 h): 64%

O=[N+]([O-])c1ccc(C=[N+]2N=C(Nc3ccccc3)[S][Pt-]2([Cl])[Cl])s1
minimal cytotoxic concentration (altered cell morphology, microscopy; confluent cultures): 20 µM

CC(C)CCOc1cc(C[n+]2cn(CCC(C)C)c3ccccc32)c(OCCC(C)C)c2ccccc12
inhibition (qRT-PCR, item: PCNA mRNA; 5 µM): 50%

CC(C)(C)c1cc2c(O)c(c1)Cc1cc(C(C)(C)C)cc(c1OCC(=O)Nc1ccncc1)Cc1cc(C(C)(C)C)cc(c1O)Cc1cc(C(C)(C)C)cc(c1OCC(=O)Nc1ccncc1)COC2
inhibition (cell growth or viability, MTT; 15 µM, 72 h): 39%

COc1cc2c(Nc3ccc(NC(=O)c4ccccc4)cc3)ncnc2cc1OCCCN1CCOCC1
cyclin B1 level (immunoblot; concentration not given, 1 h after nocodazole release): not detected

Clc1ccc(C=[N+]2N=C(Nc3ccccc3)[S][Pd-]2([Cl])[Cl])s1
minimal cytotoxic concentration (altered cell morphology, microscopy; confluent cultures): > 100 µM

COc1cc([C@@H]2c3cc4c(cc3[C@@H](OCc3cc(-c5cccc(C#N)c5)no3)[C@H]3COC(=O)C23)OCO4)cc(OC)c1OC (some centres unmarked)
GI50 (cell growth or viability, SRB; 48 h): 12.2 µM

CC(C)CCOc1cc(C(=O)C[n+]2ccn(Cc3ccccc3)c2)c(OCCC(C)C)c2ccccc12
inhibition (qRT-PCR, item: PCNA mRNA; 10 µM; baseline: control): 71.7%

COc1cc(C(=O)c2[nH]c(N)nc2-c2cccs2)cc(OC)c1OC
mitotic cells (item: phospho-histone H3; 200 nM, 12 h): 23 ± 0.7%

[Cl][Pt-]1([Cl])[S]C(Nc2ccccc2)=N[N+]1=Cc1cccs1
minimal cytotoxic concentration (altered cell morphology, microscopy; confluent cultures): 100 µM

Cc1ccc2c(Cl)cc(Cl)c([O-])c2n1.Cc1ccc2c(Cl)cc(Cl)c([O-])c2n1.[Co+2].c1ccc(-c2ccccn2)nc1
intracellular Ca2+ level (4.53 µM, 24 h): increased

O=c1c(/C=N/NC(=S)N/N=C/c2ccccc2O)coc2ccccc12
intracellular H2O2 level (DCFDA flow cytometry; 1 µM, 24 h; baseline: control): 60 to 70%

CC[C@H](C)[C@H](NC(=O)[C@H](Cc1c[nH]cn1)NC(=O)[C@H](Cc1ccccc1)NC(=O)[C@@H](NC(=O)[C@H](C)NC(=O)[C@H](CC(N)=O)NC(=O)[C@H](Cc1c[nH]c2ccccc12)NC(=O)[C@@H](NC(=O)CNC(=O)CNC(=O)[C@H](CCCNC(=N)N)NC(=O)[C@H](CCCNC(=N)N)NC(=O)[C@H](CCCNC(=N)N)NC(=O)[C@H](CCC(N)=O)NC(=O)[C@H](CCCNC(=N)N)NC(=O)[C@H](CCCNC(=N)N)NC(=O)[C@H](CCCCN)NC(=O)[C@H](CCCCN)NC(=O)[C@H](CCCNC(=N)N)NC(=O)CNC(=O)[C@@H](N)Cc1ccc(O)cc1)C(C)C)[C@@H](C)O)C(=O)N[C@@H](Cc1c[nH]c2ccccc12)C(=O)N[C@@H](Cc1c[nH]cn1)C(=O)N[C@@H](CC(=O)O)C(N)=O
relative potency (autophagy induction, item: p62, LC3 lipidation; baseline: Tat-Beclin 1, higher = more potent): ~2 fold

CC(C)=CCCC(C)(O)C1CCC2(C)C1C(O)CC1C3(C)CCC(OC4OC(COC(=O)CCCCCN5C(=O)C=CC5=O)C(O)C(OC(=O)CCCCCN5C(=O)C=CC5=O)C4O)C(C)(C)C3CCC12C (centres unmarked)
apoptotic cells (annexin V/PI flow cytometry, item: early and late apoptosis; 20 µM, 24 h): 36.4%

O=C(/C=C/c1ccc(O)cc1)OC(CO)C(=O)O (centres unmarked)
mRNA level (Wnt/β-catenin signalling, RT-qPCR, item: AXIN2 and B9L; 25 µM, 6 h, added: LiCl 20 mM; baseline: TBP): no effect

C[C@@H]1NC(=O)[C@H](CCCNC(=N)N)NC(=O)[C@H](Cc2ccc3ccccc3c2)NC(=O)[C@@H]2CCCCN2C(=O)[C@@H]([C@H](C)OP(=O)(O)O)NC(=O)CN(C)C(=O)[C@@H](C)NC(=O)c2cc3cc(c2)C(=O)NC[C@H](NC(=O)[C@@H](C)NC1=O)C(=O)N[C@@H](Cc1ccccc1)C(=O)N[C@@H](Cc1ccc2ccccc2c1)C(=O)N[C@@H](CCCNC(=N)N)C(=O)N[C@@H](CCCNC(=N)N)C(=O)N[C@@H](CCCNC(=N)N)C(=O)N[C@@H](CCCNC(=N)N)C(=O)N[C@H](C(=O)N[C@@H](CCCCN)C(N)=O)CNC3=O
inhibition (cell growth, MTT; 20 µM, 3 days): 45%

O=C(Cc1ccc(-c2ccc(OCCN3CCOCC3)cc2)cn1)NCc1ccc(F)cc1
protein level (western blot, item: phospho-FAK; 50 nM, 6 h): decreased

CO.Cc1ccc2c(Cl)cc(Cl)c([O-])c2n1.Cc1ccc2c(Cl)cc(Cl)c([O-])c2n1.[Co+2].c1ccc2nc3c4cccnc4c4ncccc4c3nc2c1
apoptotic cells (flow cytometry; 0.80 nM, 24 h): 95.7%

COCCOCCOc1ccc([P+](Cc2ccc(C3=C4C(C)=CC(C)=[N+]4[B-](F)(F)n4c(C)cc(C)c43)cc2)(c2ccc(OCCOCCOC)cc2)c2ccc(OCCOCCOC)cc2)cc1
emission intensity decrease (flow cytometry; concentration not given, 1 h, added: CCCP 10 µM): 36%

For quick reference, copied from above:
CC(C)(C)c1cc2c(O)c(c1)Cc1cc(C(C)(C)C)cc(c1OCC(=O)Nc1ccncc1)Cc1cc(C(C)(C)C)cc(c1O)Cc1cc(C(C)(C)C)cc(c1OCC(=O)Nc1ccncc1)COC2
inhibition (cell growth or viability, MTT; 15 µM, 72 h): 39%

O=C(/C=C/c1ccccc1)Oc1ccc2c(c1)O/C(=C\C=C\c1ccccc1)C2=O
mTOR level (Western blot; concentration not given, 24 h): no effect
